Measured values of several laboratories.
Compare with care: the assays were run in different laboratories. In brackets after ≈: the same amount, converted by molar mass.
Organism: Staphylococcus aureus

O=C(CCc1cc(O)c(O)c(O)c1)NCCCCCCCCCC[P+](c1ccccc1)(c1ccccc1)c1ccccc1 — cells with damaged membrane (propidium iodide uptake; XU212; half MIC, 1 h): 26.1%
CN(C)c1cc(CNC2CCCC2)c(O)c2c1C[C@H]1C[C@H]3[C@H](N(C)C)C(O)=C(C(N)=O)C(=O)[C@@]3(O)C(O)=C1C2=O — MIC (MRSA 5, Tet M, 50% human serum): 4 µg/mL (≈ 7.21 µM)
COc1ccc(NC(=O)CSc2nc3ccccc3c(=O)n2-c2ccc(S(N)(=O)=O)cc2)cc1 — inhibition zone (microbial growth, well diffusion; MRSA; 500 µg/mL, 24 h): 20 mm
Oc1ccccc1C1Nc2ccccc2C2=[O+][Cu-2]3([Cl])[O]c4ccccc4C=[N+]3N21 (stereo not drawn) — lowest effective concentration (respiratory activity, inhibitor, MTT; ATCC 29213; concentration not given; at least 70% inhibition): 0.5 × MIC
CNC(CC(C)C)C(=O)NC1C(=O)NC(CC(N)=O)C(=O)NC2C(=O)NC3C(=O)NC(C(=O)NC(C(=O)O)c4cc(O)cc(O)c4-c4cc3ccc4O)C(O)c3ccc(c(Cl)c3)Oc3cc2cc(c3OC2OC(CO)C(O)C(O)C2OC2CC(C)(NC(=O)CCCCCC[N+](C)(C)C)C(O)C(C)O2)Oc2ccc(cc2Cl)C1O (stereo not drawn) — MIC fold improvement (agar dilution; MRSA3; reference: vancomycin, higher = more active): 8 fold
CN(Cc1cc(N(C)C)c2c(c1O)C(=O)C1=C(O)[C@]3(O)C(=O)C(C(N)=O)=C(O)[C@@H](N(C)C)[C@@H]3C[C@@H]1C2)CC(C)(C)C — MIC (microbial growth; MRSA): 1 µg/mL (≈ 1.75 µM)
CNC(CC(C)C)C(=O)NC1C(=O)NC(CC(N)=O)C(=O)NC2C(=O)NC3C(=O)NC(C(=O)NC(C(=O)O)c4cc(O)cc(O)c4-c4cc3ccc4O)C(O)c3ccc(c(Cl)c3)Oc3cc2cc(c3OC2OC(CO)C(O)C(O)C2OC2CC(C)(NC(=O)CCCC[N+](C)(C)Cc3ccccc3)C(O)C(C)O2)Oc2ccc(cc2Cl)C1O (stereo not drawn) — MIC fold improvement (agar dilution; MRSA5; reference: vancomycin, higher = more active): 8 fold
Cc1cc([N+](=O)[O-])ccc1NC(=O)CSc1nc2ccccc2c(=O)n1-c1ccc(S(N)(=O)=O)cc1 — MBC (microbial killing; ATCC29 ATCC29213; 24 h): 1.17 µg/mL
CCCCCCCCCC1N=C(N)N=C(N)N1c1ccc(Cl)cc1.Cl (racemic) — MIC90 (broth microdilution; ATCC 11632; together with: 7.4 mg/mL thymidine): 4 µM
CC(C)CNCc1cc(N(C)C)c2c(c1O)C(=O)C1=C(O)[C@]3(O)C(=O)C(C(N)=O)=C(O)[C@@H](N(C)C)[C@@H]3C[C@@H]1C2 — log10 CFU reduction (MRSA 5 tetM, mouse thigh infection model; sc, 20 mg/kg, 24 h; reference: untreated control): 2.49 to 3.11 log10
O=[N+]([O-])c1ccc2c(c1)C=[N+]1N3C(=[O+][Cu-2]1([Cl])[O]2)c1ccccc1NC3c1cc([N+](=O)[O-])ccc1O (stereo not drawn) — lowest effective concentration (respiratory activity, inhibitor, MTT; ATCC 29213; concentration not given; at least 70% inhibition): 0.5 × MIC
CC(C)(C)OC(=O)N[C@@H](Cc1cnc(C23CC4CC(CC(C4)C2)C3)[nH]1)C(=O)N[C@@H](Cc1c[nH]c2ccccc12)C(=O)N[C@@H](Cc1cnc(C23CC4CC(CC(C4)C2)C3)[nH]1)C(=O)NCc1ccccc1 — IC50: 3.45 to 4.94 µg/mL
O=C(O)CN1C(=O)/C(=C/c2ccc(-c3ccc(N(c4ccccc4)c4ccccc4)cc3)cc2)NC1=S — MBC/MIC ratio (broth microdilution; ATCC 25923): 1
COc1c(CC=C(C)C)c(O)cc2c1-c1oc3c(CC=C(C)C)c(O)ccc3c1CO2 — antibacterial activity (ATCC 25923; concentration not given): inactive
N=C(N)NCCC[C@H](NC(=O)[C@H](Cc1c[nH]c2ccccc12)NC(=O)[C@H](CCC(N)=O)NC(=O)[C@H](Cc1c[nH]c2ccccc12)NC(=O)[C@H](CCCNC(=N)N)NC(=O)[C@@H](N)CCCNC(=N)N)C(=O)NCCCC[C@H](NC(=O)[C@H](CCCNC(=N)N)NC(=O)[C@H](Cc1c[nH]c2ccccc12)NC(=O)[C@H](CCC(N)=O)NC(=O)[C@H](Cc1c[nH]c2ccccc12)NC(=O)[C@H](CCCNC(=N)N)NC(=O)[C@@H](N)CCCNC(=N)N)C(=O)NCCCCCC(=O)N[C@@H](CSSC[C@H](NC(=O)CCCCCNC(=O)[C@H](CCCCNC(=O)[C@H](CCCNC(=N)N)NC(=O)[C@H](Cc1c[nH]c2ccccc12)NC(=O)[C@H](CCC(N)=O)NC(=O)[C@H](Cc1c[nH]c2ccccc12)NC(=O)[C@H](CCCNC(=N)N)NC(=O)[C@@H](N)CCCNC(=N)N)NC(=O)[C@H](CCCNC(=N)N)NC(=O)[C@H](Cc1c[nH]c2ccccc12)NC(=O)[C@H](CCC(N)=O)NC(=O)[C@H](Cc1c[nH]c2ccccc12)NC(=O)[C@H](CCCNC(=N)N)NC(=O)[C@@H](N)CCCNC(=N)N)C(N)=O)C(N)=O — time to bactericidal effect (time-kill; ATCC 25923; 44 µM): 48 h
CN(C)Cc1cc(N(C)C)c2c(c1O)C(=O)C1=C(O)[C@]3(O)C(=O)C(C(N)=O)=C(O)[C@@H](N(C)C)[C@@H]3C[C@@H]1C2 — MIC (MRSA 5, Tet M ribosome protection): 1 µg/mL (≈ 1.94 µM)
Cn1c(C23CC4CC(CC(C4)C2)C3)nn(CCN2CCCC2)c1=S — inhibition zone diameter (IFO 3060; 200 µg/disc, 24 h, 37 °C): 22 mm
CCCCCCCCCC1CC2CCCC3CC(CCCCCCCCC)NC(=N1)N23 (stereo not drawn) — IC50 (bacterial growth; ATCC 29213): 3.01 µM
N=C(N)NCCC[C@@H]1NC(=O)[C@H](CCCNC(=N)N)NC(=O)[C@H](CCCNC(=N)N)NC(=O)[C@H](Cc2ccc3ccccc3c2)NC(=O)[C@H](Cc2c[nH]c3ccccc23)NC(=O)[C@H](Cc2ccc3ccccc3c2)NC(=O)[C@H](CCCNC(=N)N)NC1=O — biofilm reduction (XTT; MRSA ATCC BAA-1556; 2 x MIC; reference: untreated): 60 to 65%
Cc1c2c(cc3oc(=O)cc(-c4ccc(Cl)cc4)c13)C(=O)c1cccc(O)c1C2=O — inhibition zone (microbial growth, disc diffusion; MTCC96; 100 µg/disc): 8 mm
CC(C)C[C@H](NC(=O)[C@H](CC(N)=O)NC(=O)[C@H](CCCNC(=N)N)NC(=O)[C@@H](CC(C)C)NC(=O)[C@H](Cc1ccc(-c2ccccc2)cc1)NC(=O)[C@H](CC(=O)O)NC(=O)[C@H](CCCCN)NC(=O)[C@@H](CC(C)C)NC(=O)[C@H](CCCNC(=N)N)NC(=O)[C@H](CCC(N)=O)NC(=O)[C@@H](NC(=O)[C@@H](CC(C)C)NC(=O)[C@H](CCCNC(=N)N)NC(=O)[C@H](CCCCN)NC(=O)[C@H](Cc1ccc(-c2ccccc2)cc1)NC(=O)CN)C(C)C)C(=O)N[C@H](C(N)=O)C(C)C — lag time before regrowth (bacterial growth; USA300; 0.5 × MIC, 24 h): ~3 h
CCCCCCCCCC(=O)N[C@@H](Cc1c[nH]c2ccccc12)C(=O)N[C@H](CC(N)=O)C(=O)N[C@@H](CC(=O)O)C(=O)N[C@@H]1C(=O)NCC(=O)N[C@@H](CCCN)C(=O)N[C@@H](CC(=O)O)C(=O)N[C@H](C)C(=O)N[C@@H](CC(=O)O)C(=O)NCC(=O)N[C@H](CO)C(=O)N[C@@H]([C@H](C)CC(=O)O)C(=O)N[C@@H](CC(=O)c2ccccc2N)C(=O)O[C@@H]1C — biofilm reduction (XTT; MRSA ATCC BAA-1556; MIC; reference: untreated): ~29%
COc1ccccc1C(=O)Oc1cccccc1=O — reduction in viable count (time-kill; ATCC 29213; 1 x MIC80, 24 h): 1 log10 CFU
CC[P+](CC)(CC)[Au-][S][C@@H]1O[C@H](COC(C)=O)[C@@H](O[C@H]2O[C@H](COC(C)=O)[C@@H](OC(C)=O)[C@H](OC(C)=O)[C@H]2OC(C)=O)[C@H](OC(C)=O)[C@H]1OC(C)=O — fold enhancement (JE2 USA300; reference: auranofin): 2 to 4
CCN(CC)CCn1nc(C23CC4CC(CC(C4)C2)C3)n(C)c1=S — inhibition zone diameter (IFO 3060; 200 µg/disc, 24 h, 37 °C): 19 mm
CC(C)C[C@H](NC(=O)[C@H](CC(N)=O)NC(=O)[C@H](CCCNC(=N)N)NC(=O)[C@@H](CC(C)C)NC(=O)[C@H](Cc1ccc(-c2ccccc2)cc1)NC(=O)[C@H](CC(=O)O)NC(=O)[C@H](CCCCN)NC(=O)[C@@H](CC(C)C)NC(=O)[C@H](CCCNC(=N)N)NC(=O)[C@H](CCC(N)=O)NC(=O)[C@@H](NC(=O)[C@@H](CC(C)C)NC(=O)[C@H](CCCNC(=N)N)NC(=O)[C@H](CCCCN)NC(=O)[C@H](Cc1ccc(-c2ccccc2)cc1)NC(=O)CN)C(C)C)C(=O)N[C@H](C(N)=O)C(C)C — biofilm disruption concentration (XTT; USA300; 24 h, 24 h preformed biofilm): 3.1 µM
CC(=O)[O-].O.O.O.O.[Ni+2].[O-]c1ccc(Br)cc1C=NCCN1CCOCC1 — inhibition zone diameter (20 µL of 100 µM per disc): 22 mm
COc1cc(NC(=O)CSc2nc3ccccc3c(=O)n2-c2ccc(S(N)(=O)=O)cc2)cc(OC)c1 — inhibition zone (microbial growth, well diffusion; ATCC29213; 500 µg/mL, 24 h): 27 mm
Oc1c(Br)cc(Br)c2nc3cc(C(F)(F)F)ccc3nc12 — MBC (Calgary Biofilm Device; MRSA 1707; biofilm): 6.25 µM
CN[C@H](CC(C)C)C(=O)N[C@H]1C(=O)N[C@@H](CC(N)=O)C(=O)N[C@H]2C(=O)N[C@H]3C(=O)N[C@H](C(=O)N[C@H](C(=O)O)c4cc(O)cc(O)c4-c4cc3ccc4O)[C@H](O)c3ccc(c(Cl)c3)Oc3cc2cc(c3O[C@@H]2O[C@H](CO)[C@@H](O)[C@H](O)[C@H]2O[C@H]2C[C@](C)(NCc3ccc(C(=O)OCCCCCCN(Cc4ccccn4)Cc4ccccn4)cc3)[C@H](O)[C@H](C)O2)Oc2ccc(cc2Cl)[C@H]1O — viable count reduction (mature biofilm; ATCC 33591 MRSA; 20 µM, 24 h; reference: untreated): 2 log CFU/mL
Oc1c(Br)cc(Br)c2nc3ccccc3nc12 — MBC (Calgary Biofilm Device; MRSA 1707; biofilm): 25 µM
CCCCCCCCCCCCCC(=O)N[C@@H](CCCNC(=N)N)C(=O)N[C@@H](CCCNC(=N)N)C(=O)N[C@@H](CCCNC(=N)N)C(N)=O — time to FITC dye entry (membrane permeabilisation; USA300; 12.5 µM, together with: 6.25 µM FITC): 150 s
CN1/C(=C/C=C/c2cc(-c3ccccc3)cc(-c3ccccc3)[o+]2)C(C)(C)c2ccccc21 — IC50 (cell wall synthesis; NCTC 8325; together with: reserpine 20 µg/mL): 0.19 µg/mL
CC1=C[C@@H](C)[C@H]2[C@@H]3C(=O)C(Cl)(Cl)C(=O)[C@H](C)C(=O)O[C@@H](C)/C=C/C=C\[C@@H](C)[C@@H]3C=C[C@@H]2C1 — MIC90 (MSSA and MRSA clinical isolates): 0.1 µg/mL
CC(=O)NCc1cc(N(C)C)c2c(c1O)C(=O)C1=C(O)[C@]3(O)C(=O)C(C(N)=O)=C(O)[C@@H](N(C)C)[C@@H]3C[C@@H]1C2 — MIC (MRSA 5, Tet M ribosome protection): > 64 µg/mL
CC[C@H](C)[C@H](NC(=O)[C@H](CCCN)NC(=O)[C@H](CC(N)=O)NC(=O)[C@H](Cc1c[nH]c2ccccc12)NC(=O)[C@H](Cc1ccccc1)NC(=O)[C@H](CCCN)NC(=O)[C@H](CCCCNC(=N)N)NC(=O)[C@H](CC(C)C)NC(=O)[C@H](Cc1c[nH]c2ccccc12)NC(=O)[C@H](CCCN)NC(=O)[C@H](CCCCNC(=N)N)NC(=O)[C@H](CC(C)C)NC(=O)CNC(C)=O)C(=O)N[C@@H](CCCN)C(=O)N[C@@H](CCCCNC(=N)N)C(N)=O — time to complete kill (time-kill; 2 x MIC): ≤ 6 h
